Experimental data gathered from unrelated publications.
A part holds a random share of what one study measured.

Set 1 — method: RNA Bind-n-Seq; molecule type: RNA; medium: in vitro; concentration: not given; reference: input RNA pool; reading: higher = stronger binding; quantity: bound/input enrichment
Target: RING finger protein unkempt homolog, zinc fingers 1-6, GST-SBP tag (UNK, Homo sapiens, UniProt Q9C0B0, residues 30-357)
UniProt Q9C0B0, sequence (30-357, looked up): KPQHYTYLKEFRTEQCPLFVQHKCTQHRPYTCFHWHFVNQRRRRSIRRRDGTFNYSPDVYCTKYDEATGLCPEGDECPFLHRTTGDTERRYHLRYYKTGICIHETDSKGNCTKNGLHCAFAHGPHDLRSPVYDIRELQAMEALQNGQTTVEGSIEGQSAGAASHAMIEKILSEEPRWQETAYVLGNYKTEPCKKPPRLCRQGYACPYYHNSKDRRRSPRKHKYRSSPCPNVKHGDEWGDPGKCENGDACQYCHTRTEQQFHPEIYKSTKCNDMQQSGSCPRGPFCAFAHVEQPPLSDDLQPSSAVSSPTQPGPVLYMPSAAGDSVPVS
Notes: RNA with constant flanks, human and mouse sites, ends assumed
Constant ends, left off below: GGGAGUUCUACAGUCCGACGAUC … CAACAGAGGAUUGAGCAUCA
UGCAGCCGAGCGGGCCCGUUCCGCCGGAGCUGAGGACCAGGUAUUCAAAUAAAGUUAAUUGCAGCUUUCUGUGAAAAUGUCAGUUUUGAUAUCACAGAGCGUCAUAAAUUAUGUAGAGGA: 0.285 ratio
GGGAUUGAUCUCCUUAGGACCUAUCUUUGGCGUUGCCAGUUCCUUUUACCUUUUGUGAGUUUAGGUUUGAUGUGCUUUGGGGCUUUGAUCGGACUUUGUGCUUGCAUUUGCCGAAGCUUA: 2.83 ratio
AAGCGUCUUAUUGGACGACGAUAUGAUGACCCUGAAGUACAGAAAGACACUAAGAAUGUUCCUUUUAAAAUUGUCCGUGCCUCCAAUGGUGAUGCUUGGGUUGAGGCUCAUGGAAAACUC: 0.105 ratio
UGUGUGUGUCAGACACUUGGCAUUUCACCUGAAGAAAAAUUUGUUAUUACAACAACAAGUAGGAAAGAAAUUACCUGUGAUAAUUUUGAUGAAACUGUUAAAGAUGGAGUCACCUUAUAC: 0.234 ratio
CUAACUCAAAUUAUGCAUGCAUUGAGUUCUUGUGUGCUUUUUCUGUUCUAAAAUUAAUGGGCUUUAUGGGUUUUGUUUUUGUAUGUUUUUAUGUCUGUUAUAUUUUGAGGUAGGGGAUUG: 4.2 ratio
GUGGUGCGUAAUGAAGAACAGAAGGCGGAACAAGAAGAGGGUAAGGUGGCUCAGCGAGAGGAAGAGUUGGAGGAGACAGGUAAUCAGCACAAUGAUGUAGAAAUAGAGGAAGCAGGAGAG: 0.895 ratio
AUCCGGGAGAAGCUGGGCUCGGGUGCCUUCUCUGAGGUGAUGCUGGCCCAGGAAAGGGGCUCUGCUCAUCUUGUGGCCCUCAAGUGCAUUCCCAAGAAAGCACUUCGGGGCAAGGAGGCC: 0.321 ratio
CAAAAGAUCCUGGCUAACUGUUCUUCUCCCUACCAGGUAGACCUGUUUGGUAUAGCAGAUUUAGCACAUUUACUAUUGUUCAAGGAACACCUACAGGUCUUCUGGGAUGGGUCCUUCUGG: 0.838 ratio
AUUUAAAAUGUAGUUAGUUAUAUUUAAUGACCUCAUUCCUAAGUUCCUUUUUCGUUAAUGUAGCUUUCAUUUCUGUUAUUGCUGUUUGAAUAAUAUGAUUAAAUAGAAGGUUUGUGCCAG: 11.9 ratio
ACUUGUAAUUUCUUUCUGCUUAGAAUCUAAAGAUGUGUUUAGAACCUCUUGUUUAAAAAUAAUAGACUGCUUAUCAUAAAAUCACAUCUCACACAUUUGAGGCAGUGGUCAAACAGGUAA: 1.39 ratio
UGUCCCCCAUGAGGUUGUGAACCCCUCCCCCCAACUUUUCAUGUUUCUUAAAGGCAUUUUGGUUUUUUAAAAUCUGUACAGCAAGAGCAACUUUUUCUGUCAAAUAAAAAUGAGAAAUGC: 0.264 ratio

Set 2 — method: protein binding microarray; molecule type: double-stranded DNA, one strand shown; medium: in vitro; concentration: not given; reference: not given; reading: higher = stronger binding; quantity: E-score
Target: Histone acetyltransferase KAT6A, winged helix 2, GST fusion (KAT6A, Homo sapiens, UniProt Q92794, residues 85-181)
Notes: 8-mer, flanks averaged, mean of 2 arrays, mostly near background
Construct (chain): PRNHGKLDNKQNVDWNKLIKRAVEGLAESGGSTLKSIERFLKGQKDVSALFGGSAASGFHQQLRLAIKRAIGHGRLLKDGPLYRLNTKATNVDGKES
CCACTGGA: 0.0294
ACTTTGAG: 0.103
AATTGTAC: -0.013
TACAAAGA: 0.115
AAAAGTGG: 0.0924
CTCGCTCA: 0.271
TCCCAAAA: 0.0817
AGGACGGC: 0.0374
ACATCAAT: -0.175
CACCCAAG: 0.145
AATGTAAA: -0.0278
CAGGGAAA: -0.0433
CTGTCTGC: 0.0534
AGGTCTCC: -0.0328
ACTTCCGC: 0.0286
AGGTTTTG: 0.0623

Set 3 — method: protein-binding microarray; molecule type: double-stranded DNA, one strand shown; medium: in vitro; concentration: 250 nM; notes: 60-bp whole probe; with: salmon DNA 0.4 mg/ml; reference: random background probes; reading: higher = stronger binding; quantity: log fluorescence; constant ends, left off below: GCCTAGCAC … GTCTTGATTCGCTTGACGCTGCTG
Target: Interferon regulatory factor 5, full length, phosphomimetic (IRF5, Homo sapiens, UniProt Q13568-2, residues 1-514, K96S/S451D/S453D/S456D/S462D)
GAGGGTTTCGGTCTCGGGACGTGCTAG: 8.56 z-score
TCATGCTTGTATCTGGGACTGTGCTAG: 0.0227 z-score
TTAGGTATCGGCCTCGGTTAGTGCTAG: 2.66 z-score
ATGGGTATGGCCTATTTATATGTGCTA: -0.403 z-score
GACGATTTCAGTCTCGATACGTGCTAG: 2.02 z-score
TCAGTTTTAGGTCCCTTACTGTGCTAG: 0.1 z-score
GACGGTATCGGGTATTGGGACGTGCTA: 2.65 z-score
GACGGTTTCCGTTTCCTGACGTGCTAG: 1.46 z-score
GAGTTCCTCTCTAGGCACTGGTGCTAG: -0.101 z-score
GACGGTAGCGGGTTTCGGGACGTGCTA: 1.81 z-score
GACGGACTGGGGTTTCGGGCCGTGCTA: 0.711 z-score
GAGATTTCCATTATTGCTTCGTGCTAG: 1.02 z-score
GACGGTTACGGGTTTCGGGACGTGCTA: 1.99 z-score
GACGGTCTCGGTTTCGAGACGTGCTAG: 2.97 z-score
TTAGAGCTGGGGTTTCGATTAGTGCTA: 4.76 z-score
TACGAACTGAGACTGGAGACGTGCTAG: -0.422 z-score
TGTTTTTGCTTTCTTTTTGCGTGCTAG: 3.3 z-score
TAGTTTATACTCTAGATGATGTGCTAG: 0.116 z-score
TCATGTTTTTTTCTATAACTGTGCTAG: 1.34 z-score
GACGGTACCGGTCTCGGGACGTGCTAG: 0.00039 z-score
CAATATATATATTATATATTTGTGCTA: 0.97 z-score
GACGATCTCAGTCTCTAGACGTGCTAG: -0.0864 z-score
TCATTTTTGCAAGCTAAAACTGTGCTA: 0.721 z-score
TCTCGCTTCATCTCCCAGACTGTGCTA: 1 z-score
TTAGTTATCGGGTTTCGGTTAGTGCTA: 8.95 z-score

Set 4 — method: RNA Bind-n-Seq; molecule type: RNA; medium: in vitro; concentration: 365 nM; reference: no-protein control; reading: higher = stronger binding; quantity: RBNS enrichment (R)
Target: RNA binding protein fox-1 homolog 2, RRM domain, GST-SBP tag (RBFOX2, Homo sapiens, UniProt O43251-10, residues 100-194)
Notes: natural RNA segment, single round, ends assumed
Constant ends, left off below: GGGAGUUCUACAGUCCGACGAUC … UGGAAUUCUCGGGUGCCAA
Construct (chain): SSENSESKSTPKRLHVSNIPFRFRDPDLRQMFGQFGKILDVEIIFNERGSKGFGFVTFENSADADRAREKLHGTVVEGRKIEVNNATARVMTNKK
CCUGCACUUCCUUUGCUUCCUCCUGUUCACCCUGGUGGUGUACGGAUGAGGCGGGGAGGUGGGACCCCCAAACAUAUAUCAGCCCAACAGCCCUAAGUCUCCUUCUUUAU: 0.264
UCACUUUCAGAAAUUCAGGUGCACAAGGGAAACUUUCAAGUACGAUCCAAUUAUCUUUCUGAUCCUUAAAACACAUGACUUCCAGCUGAAGAGAUGGCUCAGUGGUUCAG: 0.312
GAUGAGUAAUUAUAAGUAACUGUAAUCGGUAGGGAGACAUGUUUUAACCUGGAUAUGUUAGAAAAGUAUCACGUGCCACCUGGGAAGAAGUUCUUUUCUGGCAACUGUCA: 0.368
AAGCUUUAUUUGAAGCAAAGCUAGCCAAGAUUCUACGUUACUUUUCCCUUGACUGGAUCCCAAGUAGCUUGGAAGUUUUUGUGCCCAGGAGAGUAAAUAACUGUGAACAA: 0.403
GUAUUGGGUGAGGGGCUUUCUCCCUUUACCUGCCUCUUCUUGCUUGCUAAUAGUAAGUUCUUUGUGCACCUUCCACCACUUCUGAGCCACUACUAUUCAAGUAGAGAUUU: 0.287
CAGAUCUGUUUCAAAAACAAAUACAAAAAUGAGAAUGAAAAGUUUGCUUAAGACUAAGUCCAGUGUUUUUCAUUUUCCCUUUGGCUGAAUAUUUCAAUUGACAAACCAGC: 0.538
GGUUUCCCUCCCUGUUUUCCUACCUCUACGGCAAGCCCAAAGUGUCUUCCCGGGAGCCCAGCGCAGCCCCCGGCUCUUACCCAGGACCCCGCCCCGUGCUGAGCCUUCUG: 0.51
GGAACAGAAAUCCUUGAACUUUUUAUUUGGCGUGUGCCAUGUUAUGAUCAUGUACCUUUUCAAUAAGGGGAGAUAGUAUCUUUAAAGUCAAUGUCUAGCCAAGAGUUUAG: 0.473
AAUUUACUAUUUUUAAAAUAUUUUGCUGCUUCUGUUCUGGGUCUGAAUUCCCUUUUGUGCCAGAUGCCAGUACUGUCUGCCCAUUGGCUCCAGGGGCUGUAUGGGCAGAU: 0.27
AGAGGAAGAUGCUAUGAAAGAAAAAAAAAAUUCCUAAAACUGUGGAAUGGAUCACGUAGACAUGUAACCCAGCAGCAGUUUGCUUCUGUUGUCCACUGAUUAAUCAGCCU: 0.876
UGUGCACCCUUUGCUCCCUGCUCUUUCUGCCUCUGGGCUCAUGUAUCUGCGCAGCUCUGGUACCCUCUGUGGGUGCCAUCUCUACCUCUGACACAGACUGCCUGCCUUGA: 0.946
CCCUUUCACUGCCCCAGUGGUGUAAGUGGAGGGCCAGGGACCCUGCAAUUGUACCUGCUCCUCAUCCUAUCCCCCACCCGCUUCCUUCCCCCAUUAAACCUCUAUCCGCC: 0.641

A few entries again (set 4):
GUAUUGGGUGAGGGGCUUUCUCCCUUUACCUGCCUCUUCUUGCUUGCUAAUAGUAAGUUCUUUGUGCACCUUCCACCACUUCUGAGCCACUACUAUUCAAGUAGAGAUUU: 0.287
CAGAUCUGUUUCAAAAACAAAUACAAAAAUGAGAAUGAAAAGUUUGCUUAAGACUAAGUCCAGUGUUUUUCAUUUUCCCUUUGGCUGAAUAUUUCAAUUGACAAACCAGC: 0.538
GGUUUCCCUCCCUGUUUUCCUACCUCUACGGCAAGCCCAAAGUGUCUUCCCGGGAGCCCAGCGCAGCCCCCGGCUCUUACCCAGGACCCCGCCCCGUGCUGAGCCUUCUG: 0.51
GGAACAGAAAUCCUUGAACUUUUUAUUUGGCGUGUGCCAUGUUAUGAUCAUGUACCUUUUCAAUAAGGGGAGAUAGUAUCUUUAAAGUCAAUGUCUAGCCAAGAGUUUAG: 0.473
